Results from different studies.
Each line is one published result; not all experiments were run side by side. Numbers after ± are the reported error.
Cell line: HeLa

`Clc1nc(NCc2ccco2)c2[nH]cnc2n1` has a GFP/RFP ratio of 1 (GLA poison exon splicing reporter; 10 µM, 18 h).
The caspase-3/7 activity of `COc1cccc2c1C(=O)c1c(O)c3c(c(O)c1C2=O)C[C@@](O)(C(=O)CO)C[C@@H]3O[C@H]1C[C@H](N)[C@H](O)[C@H](C)O1` is reported as > 8 fold (5 µM, 24 h; reference: untreated).
Under autophagy induction, `CC[C@H](C)[C@H](NC(=O)[C@H](Cc1c[nH]cn1)NC(=O)[C@H](Cc1ccccc1)NC(=O)[C@H]1CSCc2ccccc2CSC[C@@H](NC(=O)[C@@H](NC(=O)c2cccnc2)C(C)C)C(=O)N[C@@H](CC(N)=O)C(=O)N[C@@H](C)C(=O)N1)C(=O)N[C@@H](Cc1c[nH]c2ccccc12)C(=O)N[C@@H](Cc1c[nH]cn1)C(N)=O` is recorded as “inactive” (immunoblot, refers to: LC3 lipidation and p62 degradation; acidified Opti-MEM; concentration not given, 2 h).
`COc1cccc2c1C(=O)c1c(O)c3c(c(O)c1C2=O)C[C@@](O)(C(=O)CO)C[C@@H]3O[C@H]1C[C@H](N)[C@H](O)[C@H](C)O1` gave a growth inhibition of 82.2 ± 2.08% (MTT; 100 µM, 48 h).
`COc1cccc(CNC[C@@](C)(O)[C@@H]2CC[C@@H](C)C[C@H]2OCc2ccccc2)c1` gave an IC50 of 6290 nM (cell growth, inhibitor, MTT; 72 h).
`C#CCOc1cc(C(=O)Nc2cc(OCCCN)c3ccccc3n2)nc(C(=O)Nc2cc(OCCCN)c3ccccc3n2)c1` has a selectivity ratio of 1 (cell viability, CellTiter-Glo; 72 h; reference: IC50 HeLa over WI-38).
The IC50 of `C[C@@H]1CC[C@@H]([C@@](O)(CNCc2ccccc2)COCc2ccc(F)cc2)[C@H](OCc2ccc(F)cc2)C1` is reported as 2950 nM (cell growth, inhibitor, MTT; 72 h).
With `C#CCOc1cc(C(=O)Nc2cc(OCCN)c3ccccc3n2)nc(C(=O)Nc2cc(OCCN)c3ccccc3n2)c1` the selectivity ratio was 0.8 (cell viability, CellTiter-Glo; 72 h; reference: IC50 HeLa over WI-38).
For `O=C(NC[C@H](O)CN1CCc2ccccc2C1)c1cc(NC2COC2)ncn1`, protein interaction read “decreased” (co-immunoprecipitation, western blot, refers to: EFTUD2 with GFP-SART3; 10 µM, 3 days).
The IC50 of `C[C@@H]1CC[C@@H]([C@](C)(O)Cn2ccnc2)[C@H](OCc2ccccc2)C1` is reported as 24500 nM (cell growth, inhibitor, MTT; 72 h).
`NCCCOc1cc(NC(=O)c2cc(OCCN)cc(C(=O)Nc3cc(OCCCN)c4ccccc4n3)n2)nc2ccccc12` gave a selectivity ratio of 0.8 (cell viability, CellTiter-Glo; 72 h; reference: IC50 HeLa over WI-38).
`CC[C@H](C)[C@@H]1NC(=O)[C@H](Cc2ccc(O)cc2)NC(=O)[C@H](CC(C)C)NC(=O)[C@@H]2CCCN2C(=O)[C@H](NC(=O)[C@@H](CCCNC(=N)N)NC(=O)[C@@H](CCCNC(=N)N)NC(=O)[C@H](CCCCN=[N+]=[N-])NC(C)=O)CSCSC[C@@H](C(=O)N[C@H](CCCNC(=N)N)C(=O)N[C@H](CCCNC(=N)N)C(N)=O)NC(=O)[C@H](C(C)C)NC(=O)[C@@H]2CCCN2C(=O)[C@H](CC(=O)O)NC(=O)[C@H](Cc2ccc(O)cc2)NC(=O)[C@H](CO)NC1=O` gave an EC50 of 1260 nM (cell permeability, NanoClick; 18 h).
With `COc1cc(C(=O)Nc2cc(OCCN3CCCC3)c3ccccc3n2)nc(C(=O)Nc2cc(OCCN3CCCC3)c3ccccc3n2)c1` the selectivity ratio was 1 (cell viability, CellTiter-Glo; 72 h; reference: IC50 HeLa over WI-38).
`COc1ccc(CNC[C@](O)(COCc2ccc(OC)cc2)[C@@H]2CC[C@@H](C)C[C@H]2OCc2ccc(OC)cc2)cc1` gave an IC50 of 1950 nM (cell growth, inhibitor, MTT; 72 h).
With `CN(C)CCCOc1cc(NC(=O)c2cccc(C(=O)Nc3cc(OCCCN(C)C)c4ccccc4n3)n2)nc2ccccc12` the selectivity ratio was 0.7 (cell viability, CellTiter-Glo; 72 h; reference: IC50 HeLa over WI-38).
`c1coc(CNc2ncnc3[nH]cnc23)c1`: “GLA reporter splicing” “no effect” (GLA poison exon splicing reporter; concentration not given).
The IC50 of `CN1CCC(NC2CCc3[nH]c4c(C(N)=O)ccc(-c5ccccc5Cl)c4c3C2)CC1` (stereo not shown) is reported as 20 nM (cell growth).
`Fc1nc(Cl)c2[nH]cnc2n1` — result for “mean GFP/RFP ratio”: 0.36 (GLA poison exon splicing reporter; 10 µM, 18 h).
Under “late apoptotic cells”, `COc1ccc(NC(=S)N/N=C/c2cccc3cc4ccccc4nc23)cc1` is recorded as 6.6% (annexin V/PI; concentration not given, 48 h, dosed at IC12.5).
For `CN1CC[C@H](c2c(O)cc(O)c3c(=O)cc(-c4ccccc4Cl)oc23)[C@H](O)C1`, mRNA level read “decreased” (RT-qPCR, refers to: c-Fos, Hsp70, Mcl-1; 10 nM, overnight).
For `C[C@@H]1CC[C@@H]([C@](C)(O)CNCc2cccc3ccccc23)[C@H](OCc2ccccc2)C1`, the IC50 was 5420 nM (cell growth, inhibitor, MTT; 72 h).
The GFP/RFP ratio of `Clc1ncnc2c1ncn2C1CCCCO1` (stereo not shown) is reported as 0.5 (splicing reporter, refers to: GLA; 10 µM, 18 h).
Under “mitochondrial length decrease”, `CCCCCCCC/C=C\CCCCCCCC(=O)O` is recorded as 43% (200 µM, 20 h, BSA complex).
The GFP/RFP ratio of `CC(C)n1cnc2c(N(Cc3ccccc3O)Cc3ccccc3O)nc(Cl)nc21` is reported as 0.55 (splicing reporter, refers to: GLA; 10 µM, 18 h).
The IC50 of `COc1cccc2c1C(=O)c1c(O)c3c(c(O)c1C2=O)C[C@@](O)(C(=O)CO)C[C@@H]3O[C@H]1C[C@H](N)[C@H](O)[C@H](C)O1` is reported as 0.72 ± 0.12 µg/mL (cell viability, MTT; 48 h).
With `NCCOc1cc(NC(=O)c2cc(OCc3ccc(F)cc3)cc(C(=O)Nc3cc(OCCN)c4ccccc4n3)n2)nc2ccccc12` the selectivity ratio was 0.5 (cell viability, CellTiter-Glo; 72 h; reference: IC50 HeLa over WI-38).
`CC(C)n1cnc2c(NCc3ccccc3O)nc(Cl)nc21` has a GFP/RFP ratio of 0.25 (splicing reporter, refers to: GLA; 10 µM, 18 h).
With `COc1ccc(CNC[C@](O)(COCc2ccc(F)cc2)[C@@H]2CC[C@@H](C)C[C@H]2OCc2ccc(F)cc2)cc1` the IC50 was 2450 nM (cell growth, inhibitor, MTT; 72 h).
`O=C(Nc1cc(OCCN2CCCC2)c2ccccc2n1)c1cc(OCCN2CCCC2)cc(C(=O)Nc2cc(OCCN3CCCC3)c3ccccc3n2)n1` gave a selectivity ratio of 0.9 (cell viability, CellTiter-Glo; 72 h; reference: IC50 HeLa over WI-38).
`COC(=O)COc1c(Cc2cc(C(C)(C)CC(C)(C)C)cc(-n3nc4ccccc4n3)c2OCC(=O)OC)cc(C(C)(C)CC(C)(C)C)cc1-n1nc2ccccc2n1` gave a growth inhibition of 76.2 ± 3.11% (MTT; 100 µM, 48 h).
`Oc1ccc(Nc2nc(Cl)nc(NCc3ccco3)n2)cc1` has a GFP/RFP ratio of 0.26 (splicing reporter, refers to: GLA; 10 µM, 18 h).
`CCCCCCCCCCCCCC(=O)N[C@@H](CCSC)C(=O)N[C@@H](C)C(=O)N[C@@H](CO)C(=O)N[C@@H](CCCNC(=N)N)C(=O)NCC(=O)N[C@@H](C)C(=O)N[C@@H](CC(C)C)C(=O)N[C@@H](CCCNC(=N)N)C(=O)N[C@@H](CCCNC(=N)N)C(=O)N[C@@H](CS)C(=O)N[C@@H](CC(C)C)C(=O)N[C@@H](CO)C(=O)N1CCC[C@H]1C(=O)NCC(=O)N[C@@H](CC(C)C)C(=O)N1CCC[C@H]1C(=O)N[C@@H](CCCNC(=N)N)C(=O)N[C@@H](CC(C)C)C(=O)N[C@@H](CC(C)C)C(=O)N[C@@H](Cc1c[nH]cn1)C(=O)N[C@@H](CC(C)C)C(=O)N[C@@H](CO)C(=O)N[C@@H](CCCNC(=N)N)C(=O)NCC(=O)N[C@@H](CC(C)C)C(=O)N[C@@H](C)C(N)=O`: viability “inhibited” (cell viability, XTT; concentration not given, cervix).
`Nc1nc(F)nc2nc[nH]c12`: “mean GFP/RFP ratio” 0.16 (GLA poison exon splicing reporter; 1 µM, 18 h, solubility limited above 1 µM).
For `C[C@@H]1CC[C@@H]([C@](O)(CNCc2ccccc2)COCc2ccccc2)[C@H](OCc2ccccc2)C1`, the IC50 was 2570 nM (cell growth, inhibitor, MTT; 72 h).
`O=C(Nc1cc(OCCN2CCCC2)c2ccccc2n1)c1cc(OCc2ccc(F)cc2)cc(C(=O)Nc2cc(OCCN3CCCC3)c3ccccc3n2)n1` gave a selectivity ratio of 0.9 (cell viability, CellTiter-Glo; 72 h; reference: IC50 HeLa over WI-38).
For `COc1ccc(CNC[C@@](C)(O)[C@@H]2CC[C@@H](C)C[C@H]2OCc2ccccc2)cc1`, the IC50 was 4320 nM (cell growth, inhibitor, MTT; 72 h).
`CC(=O)N[C@@H](CS)C(=O)O` — result for “G2/M phase cells”: 14.9 ± 2% (PI flow cytometry; concentration not given, 48 h).

Some of these lines once more:
`CC[C@H](C)[C@@H]1NC(=O)[C@H](Cc2ccc(O)cc2)NC(=O)[C@H](CC(C)C)NC(=O)[C@@H]2CCCN2C(=O)[C@H](NC(=O)[C@@H](CCCNC(=N)N)NC(=O)[C@@H](CCCNC(=N)N)NC(=O)[C@H](CCCCN=[N+]=[N-])NC(C)=O)CSCSC[C@@H](C(=O)N[C@H](CCCNC(=N)N)C(=O)N[C@H](CCCNC(=N)N)C(N)=O)NC(=O)[C@H](C(C)C)NC(=O)[C@@H]2CCCN2C(=O)[C@H](CC(=O)O)NC(=O)[C@H](Cc2ccc(O)cc2)NC(=O)[C@H](CO)NC1=O` gave an EC50 of 1260 nM (cell permeability, NanoClick; 18 h).
For `COc1ccc(CNC[C@@](C)(O)[C@@H]2CC[C@@H](C)C[C@H]2OCc2ccccc2)cc1`, the IC50 was 4320 nM (cell growth, inhibitor, MTT; 72 h).
The GFP/RFP ratio of `Clc1ncnc2c1ncn2C1CCCCO1` (stereo not shown) is reported as 0.5 (splicing reporter, refers to: GLA; 10 µM, 18 h).
The IC50 of `C[C@@H]1CC[C@@H]([C@](C)(O)Cn2ccnc2)[C@H](OCc2ccccc2)C1` is reported as 24500 nM (cell growth, inhibitor, MTT; 72 h).
`Fc1nc(Cl)c2[nH]cnc2n1` — result for “mean GFP/RFP ratio”: 0.36 (GLA poison exon splicing reporter; 10 µM, 18 h).
Under “mitochondrial length decrease”, `CCCCCCCC/C=C\CCCCCCCC(=O)O` is recorded as 43% (200 µM, 20 h, BSA complex).
